Results of several laboratories.
Protocols differ between the studies behind these lines. “And” joins repeats or separate records; there may be more than shown.
Target: G protein-coupled receptor kinase 6 (GRK6, Homo sapiens, UniProt P43250)

O=C(Cc1ccc(OCc2ccccc2)cc1)NC1(C(=O)O)CCN(C(=O)c2ccc(-c3cccc(Cl)c3)cc2)CC1  activity vs control (enzyme activity, inhibitor; 10 µM): 98%
Nc1ncc(-c2cc(-c3cnn(CC(F)(F)F)c3)ncc2F)nc1C(=O)NC1CNCC(F)C1 (stereo not shown)  remaining activity (enzyme activity; 1 µM; reference: DMSO control): 92.1%
O=C=[N][Ru-4]123([n]4c5ccc(O)cc5c5c6c(c7cc(F)c[n+]1c7c54)C(=O)NC6=O)[S+]1CC[S+]2CC[S+]3CC1 (stereo not shown)  remaining activity (enzyme activity; 100 nM, human enzyme, together with: 10 µM ATP; reference: untreated): 53%
COc1c(OCCCN2CCOCC2)ccc2c1N=C(NC(=O)c1cnc(N)nc1)N1CCN=C21  remaining activity (kinase activity, inhibitor; 1 µM; reference: untreated control): 101%
CNC(=O)C[C@H](Cc1ccc(C#N)cc1)NC(=O)c1cc(-c2ccc(CN[C@H](C)c3ccc(C)cc3)o2)ccc1Cl  activity vs control (enzyme activity, inhibitor; 1 µM): 98%
CN1CC[C@@H](COc2cnc(C#N)cc2-c2ccn3nc(NC(=O)C4CC4)cc3c2)C1  inhibition (enzyme activity, inhibitor; 1 µM): -3%
NC(=O)C[C@H]1CCc2sc3ncnc(O[C@H]4CC[C@H](N5CCOCC5)CC4)c3c21  inhibition (enzyme activity, inhibitor; 10 µM): -4%
COCC12C(=O)NC3C4(C(OC)CC1O)C1CC5(O)C(OC)C(O)C(OC(C)=O)(C1C5OC(=O)c1ccccc1)C3(O)C(OC)C24 (stereo not shown)  remaining activity (kinase activity, inhibitor, ProQinase kinase profiling; 25 µM; reference: control): 79% and 90%
COc1ccc(NC(=O)Nc2ccc3c(c2)C(=O)N(C(C)CO)CC(C)C(CN(C)Cc2ccc4c(c2)OCO4)O3)cc1 (stereo not shown)  remaining activity (kinase activity, KinaseProfiler; 0.03 µM, species human; reference: control): 104%
CCn1cc(C(=O)O)c(=O)c2c(N)c(F)c(NC3CCCCC3)cc21  inhibition (kinase activity; 0.1 µM, together with: ATP at Km): 25.2%
NC(=O)[C@@H](O)C[C@H]1CCc2sc3ncnc(O[C@H]4CC[C@H](N5CCOCC5)CC4)c3c21  inhibition (enzyme activity, inhibitor; 10 µM): -2%
C=CC(=O)N1Cc2nc(-c3cc(-c4cc(Cl)cnc4Cl)c(F)cc3F)n(-c3ccncn3)c2C1  inhibition (cell-free assay, inhibitor; 1 µM): 2%
C=CC(=O)Nc1cccc(-c2cnc3[nH]cc(C(=O)NC(C)(C)C)c3n2)c1  inhibition (kinase activity; 0.1 µM): 7% and 6%
Cc1cccc(O[C@H]2CCC[C@@H](C(C)CNCc3ccncc3)C2)c1 (relative stereo)  inhibition (enzyme activity, inhibitor; 10 µM): 0%
CN1CCN(Cc2ccc(-c3ccc(CO[C@H]4CCC[C@@H]4NC(=O)c4cc(-c5cnn(C)c5)cnc4N)cc3)cc2)CC1  inhibition (enzyme activity, inhibitor; 0.1 µM): 6%
Cc1nc2c(F)cc(-c3nc(Nc4ccc(CNC(=O)CCCCCCC(=O)NO)cc4)ncc3F)cc2n1C(C)C  inhibition (enzyme activity, inhibitor; 1 µM): 11%

Some of these lines once more:
COc1c(OCCCN2CCOCC2)ccc2c1N=C(NC(=O)c1cnc(N)nc1)N1CCN=C21  remaining activity (kinase activity, inhibitor; 1 µM; reference: untreated control): 101%
CNC(=O)C[C@H](Cc1ccc(C#N)cc1)NC(=O)c1cc(-c2ccc(CN[C@H](C)c3ccc(C)cc3)o2)ccc1Cl  activity vs control (enzyme activity, inhibitor; 1 µM): 98%
